Assay results collected from several papers.
pIC50: −log10 of the molar value.

COc1cc(C(=O)c2nc(-c3cccc4c3ccn4C)c[nH]2)cc(OC)c1OC — pIC50 (M14; cell growth or viability, MTS; 72 h): 8.17
COc1ccc(-c2cc(C(F)(F)F)c3c(N)c(C(=O)Nc4cccc(C)c4OC)sc3n2)cc1 — pIC50 (HepG2; cell growth or viability; 72 h): < 4.00
COc1ccc(Nc2nn3c(-c4ccccc4)ccnc3c2C(=O)Nc2ccc(Cl)cc2)cc1 — viability (Caco-2; cell growth or viability, MTT; 100 µg/mL, 48 h, serum-free): 12.7%
N#C[Se]CCCCOc1ccc2c(-c3ccccc3)cc(=O)oc2c1 — GI50 (SW1573; cell growth or viability, SRB): 27 µM
[2H]c1c([2H])c([C@]2([2H])CCCN2C(=O)C(C)(C)Oc2ccc3cn[nH]c3c2)c([2H])c([2H])c1C([2H])([2H])[2H] — remaining binding (DYRK1A (Homo sapiens, UniProt Q13627); binding, competition with immobilised ligand; 1 µM): 88%
CCOC(=O)C1=C(N)N(c2ccc(C(=O)OCC)cc2)C(O)=C(C#N)C12C(=O)Nc1ccccc12 (stereo not shown) — viability (HepG2; cell growth or viability, MTT; 50 µM, 24 h): 16.1%
N#C[Se]Cc1cc(=O)oc2cc(O)ccc12 — GI50 (SW1573; cell growth or viability, SRB): 30 µM
N.N.[Cl][Pt][Cl] — pIC50 (A549; cell growth or viability, MTT): 5.76
Cc1c(Cl)c(=O)oc2cc(OCCCC[Se]C#N)ccc12 — GI50 (SW1573; cell growth or viability, SRB): 23 µM
COc1ccc(Nc2nn3c(-c4ccccc4)ccnc3c2C(=O)Nc2ccccc2)cc1 — viability (A549; cell growth or viability, MTT; 12.5 µg/mL, 48 h, serum-free): 88.6%
COc1ccc(C(=O)Nc2ccc3c(c2)C=CCP(=O)(O)O3)cc1 — Emax (MDA-MB-231; cell growth or viability, MTT; 72 h): ~10%
CN(C)c1ccc(C(=O)NCCCCCCC(=O)NO)cc1 — viability (OCI-Ly1; cell growth or viability, ATP luminescence; 0.1 µM, 5 days): 136%
N.N.[Cl][Pt][Cl] — pIC50 (WSUDLCL2; cell growth or viability, ATP luminescence; 72 h): 5.36

Some of these lines once more:
CN(C)c1ccc(C(=O)NCCCCCCC(=O)NO)cc1 — viability (OCI-Ly1; cell growth or viability, ATP luminescence; 0.1 µM, 5 days): 136%
